Assay results collected from several papers.
Compare with care: the assays were run in different laboratories. Numbers after ± are the reported error. Values after ≈ are worked out from the molar mass of the structure shown.

`CC[C@H](C)[C@H](N)C(=O)N[C@@H](Cc1c[nH]c2ccccc12)C(=O)N[C@@H](CC(C)C)C(=O)N[C@H](C(=O)N[C@@H](C)C(=O)N[C@@H](CC(C)C)C(=O)N[C@@H](CCCCN)C(=O)N[C@@H](Cc1ccccc1)C(=O)N[C@@H](CC(C)C)C(=O)NCC(=O)N[C@@H](CCCCN)C(=O)N[C@@H](Cc1c[nH]cn1)C(=O)N[C@@H](C)C(=O)N[C@@H](C)C(=O)N[C@@H](CCCCN)C(=O)N[C@@H](Cc1c[nH]cn1)C(=O)N[C@@H](CC(C)C)C(=O)N[C@@H](C)C(=O)N[C@@H](CCCCN)C(=O)N[C@@H](CCC(N)=O)C(=O)N[C@@H](CCC(N)=O)C(=O)N[C@@H](CC(C)C)C(=O)N[C@@H](CO)C(=O)N[C@@H](CCCCN)C(=O)N[C@@H](CC(C)C)C(=O)O)[C@@H](C)O` has an MIC of 3.1 µM (≈ 8.82 µg/mL) (Staphylococcus aureus; broth microdilution; USA300 LAC; 37 °C).
`Nc1ncnc2c([C@@H]3N[C@H](CO)[C@@H](O)[C@H]3O)c[nH]c12` gave an inhibition of 25.8% (Sudan ebolavirus; viral replication; HeLa, Boniface; 3.1 µM).
The MIC of `CC[C@H](C)[C@H](NC(=O)[C@H](CCCCN)NC(=O)[C@H](CCCNC(=N)N)NC(=O)[C@H](CCCNC(=N)N)NC(=O)[C@H](CC(C)C)NC(=O)[C@H](CCCCN)NC(=O)[C@H](CCCCN)NC(=O)[C@H](Cc1ccccc1)NC(=O)[C@H](CC(C)C)NC(=O)CNC(=O)[C@H](CCCNC(=N)N)NC(=O)[C@@H](N)CCCNC(=N)N)C(=O)N[C@@H](CCCCN)C(=O)N[C@@H](CCCCN)C(=O)NCC(=O)N[C@@H](Cc1ccccc1)C(=O)N[C@@H](CCCCN)C(=O)N[C@@H](CCCCN)C(=O)N[C@H](C(=O)N[C@@H](Cc1ccccc1)C(=O)N[C@@H](CCCCN)C(=O)N[C@@H](CCCNC(=N)N)C(=O)N[C@@H](CC(C)C)C(=O)N1CCC[C@H]1C(=O)N1CCC[C@H]1C(=O)N[C@H](C(=O)NCC(=O)N[C@H](C(=O)NCC(=O)N[C@H](C(=O)N[C@@H](CO)C(=O)O)C(C)C)C(C)C)C(C)C)[C@@H](C)CC` is reported as 5.15 µM (≈ 18.7 µg/mL) (Clostridium perfringens; ATCC 13124).
Under “patients with adverse event”, `Cn1cnc(Cn2c(=O)[nH]/c(=N\c3cc4cn(C)nc4cc3Cl)n(Cc3cc(F)c(F)cc3F)c2=O)n1` is recorded as 0% (human, mild renal impairment; oral, 375 mg, treatment-related decreased GFR, Mild severity).
The EC50 of `CCCC(=O)OCSc1ccccc1C(=O)NCCC(N)=O` is reported as 3140 ± 2180 nM (HIV-1; viral replication; human PBMC, subtype D 92UG001, dual-tropic clinical isolate).
For `COc1ccccc1S(=O)(=O)Nc1ccccc1Sc1ccc(N)cc1`, the IC50 was 20800 nM (HIV-1; viral replication, refers to: RT activity; H9 expressing A3G, LAI, X4-tropic wild type; day 7).
For `O=C1Nc2ccc(Cl)cc2[C@@](C#CC2CC2)(C(F)(F)F)O1`, the EC50 was 4.9 ± 0.7 nM (HIV-1; viral replication, single-round infection; RT mutant V106A/F227L).
The IC50 of `CC(C)(C)OC(=O)N1CCN(C(=O)c2ccccc2Sc2ccc([N+](=O)[O-])cc2)CC1` is reported as 3900 nM (HIV-1; viral replication, refers to: RT activity; H9 expressing A3G, LAI, X4-tropic wild type; day 7).
For `Cc1cc(/C=C/C#N)cc(C)c1Nc1ccnc(Nc2ccc(C#N)cc2)n1`, the EC50 was 0.8 ± 0.3 nM (HIV-1; viral replication, single-round infection; RT mutant D67E).
`CC[C@]1(CO)O[C@@H](n2cnc3c(=O)[nH]c(N)nc32)C[C@@H]1O` gave an IC50 of 14 nM (HIV-1 K65R; MTT; MT4).
With `COc1ccc(Nc2nc(Nc3ccc(OC)cc3OC)nc(N3CCOCC3)n2)c(OC)c1` the efficacy was 89.9% (SARS-CoV-2; cytopathic effect; USA_WA1/2020; retest 8-point).
`Cc1cn([C@H]2C[C@H](N=[N+]=[N-])[C@@H](CO)O2)c(=O)[nH]c1=O` gave an EC50 of 7.33 ± 1.1 nM (HIV-1; viral replication; human PBMC, subtype G JV1083, CCR5-tropic clinical isolate).
The IC50 of `Nc1nc(NC2CC2)c2ncn([C@H]3C=C[C@@H](CO)C3)c2n1` is reported as 1530 ± 431 nM (HIV-1 M184V; MTT; MT4).
Under antiviral activity, `CNc1nc(N)ncc1-c1cn([C@@H]2O[C@H](CO)[C@@H](O)[C@@]2(C)F)cn1` is recorded as “inactive” (herpes simplex virus 1; concentration not given).
`Nc1nc(N)c2ncn([C@H]3C[C@H](O)[C@](CO)(CF)O3)c2n1` gave an IC50 of 3.2 nM (HIV-1 T215F; MTT; MT4).
For `Cc1ccc(Nc2ccnc(N3CCC(C(=O)NCCCc4ccccc4)CC3)n2)cc1`, the maximum response was 59.3% (SARS-CoV-2; cytopathic effect; USA_WA1/2020; retest, 8-point, duplicates).
The IC50 of `C[C@]1(CO)O[C@@H](n2cnc3c(=O)[nH]c(N)nc32)C[C@@H]1O` is reported as 185 ± 72 nM (HIV-1 T215F; MT4).
The IC50 of `O=C(Nc1ccccc1CO)c1ccccc1Oc1ccc([N+](=O)[O-])cc1` is reported as 9200 nM (HIV-1; viral replication, refers to: RT activity; H9 expressing A3G, LAI, X4-tropic wild type; day 7).
`CNc1nc(N)ncc1-c1cn([C@@H]2O[C@H](CO[P@@](=O)(N[C@@H](C)C(=O)OC(C)C)Oc3ccccc3)[C@@H](O)[C@@]2(C)F)cn1`: antiviral activity “inactive” (Epstein-Barr virus; concentration not given).
`Cn1c(Cn2ccc(C(F)(F)F)c(Oc3cc(Cl)cc(C#N)c3)c2=O)n[nH]c1=O` gave an EC50 of 0.2 ± 0.02 nM (HIV-1; viral replication, single-round infection; RT mutant K101E/M184V).
With `C[C@H]1O[C@@H](O[C@H]2[C@@H](O)C[C@H](O[C@H]3[C@@H](O)C[C@H](O[C@H]4CC[C@@]5(C)[C@H](CC[C@@H]6[C@@H]5CC[C@]5(C)[C@@H](C7=CC(=O)OC7)CC[C@]65O)C4)O[C@@H]3C)O[C@@H]2C)C[C@H](O)[C@@H]1O` the maximum inhibition was 32.4% (human coronavirus OC43; virus-induced cell killing; MRC-5; screen).
`C#C[C@]1(CO)O[C@@H](n2ccc(N)nc2=O)C[C@@H]1O` has an IC50 of 15.5 ± 1.7 nM (HIV-1 M184V; MTT; MT4).
The IC50 of `O=C(Nc1ccccc1O)c1ccccc1Sc1ccc([N+](=O)[O-])cc1` is reported as 25000 nM (HIV-1; viral replication, refers to: RT activity; H9 expressing A3G, LAI, X4-tropic wild type; day 7).
`CNC(=O)[C@@H](NC(=O)[C@H](CC(C)C)[C@H](O)C(=O)NO)C(C)(C)C` has a remaining activity of 0% (Daboia russelii venom proteases (SVMP); protease activity, inhibitor; KA population; 10 µM, together with: azocasein substrate; reference: venom alone).
`Cc1cn([C@H]2C[C@H](N=[N+]=[N-])[C@@H](CO)O2)c(=O)[nH]c1=O` gave an IC50 of 13.5 ± 1 nM (HIV-1 K65R; MTT; MT4).
`COc1ccccc1C(=O)Nc1ccccc1Oc1ccc(N(C)C)cc1` has an IC50 of 2500 nM (HIV-1; viral replication, refers to: RT activity; H9 expressing A3G, LAI, X4-tropic wild type; day 7).
`Cc1cc(/C=C/C#N)cc(C)c1-n1cnc2cnc(Nc3ccc(/C=C/C#N)cc3)nc21` has an EC50 of over 7 nM (HIV-1; viral replication, single-round infection; RT mutant K101E/M184I).
`C#C[C@]1(CO)O[C@@H](n2cnc3c(O)ncnc32)C[C@@H]1O` has an IC50 of 298 ± 96.3 nM (HIV-1 T215F; MTT; MT4).
For `Ro 31-8220`, viral titre read “decreased” (porcine epidemic diarrhea virus; concentration not given).
The EC50 of `Cc1cc(/C=C/C#N)cc(C)c1Nc1nc(Nc2ccc(/C=C/C#N)cc2)ncc1N` is reported as 6.8 ± 0.2 nM (HIV-1; viral replication, single-round infection; RT mutant E138K/M184V).
`N#CC(C#N)=NNc1cccc(Cl)c1` gave an FIC index of 1 (Escherichia coli; checkerboard; tetracycline-resistant; 1 µM, together with: tetracycline).
The IC50 of `COc1ccccc1NC(=O)c1ccccc1Oc1ccc([N+](=O)[O-])cc1` is reported as 4700 nM (HIV-1; viral replication, refers to: RT activity; H9 expressing A3G, LAI, X4-tropic wild type; day 7).
Under “subjects with treatment-emergent ADA”, `CC[C@H](C)[C@H](NC(=O)[C@H](CC(C)C)NC(=O)[C@H](Cc1c[nH]c2ccccc12)NC(=O)[C@H](CCC(N)=O)NC(=O)[C@@H](NC(=O)[C@H](Cc1ccccc1)NC(=O)[C@H](C)NC(=O)[C@H](CCCCNC(=O)COCCOCCNC(=O)COCCOCCNC(=O)CC[C@H](NC(=O)CCCCCCCCCCCCCCCCCCC(=O)O)C(=O)O)NC(=O)[C@H](CCC(N)=O)NC(=O)[C@H](C)NC(=O)[C@@H](NC(=O)[C@H](CCCCN)NC(=O)[C@H](CC(=O)O)NC(=O)[C@H](CC(C)C)NC(=O)C(C)(C)NC(=O)[C@@H](NC(=O)[C@H](CO)NC(=O)[C@H](Cc1ccc(O)cc1)NC(=O)[C@H](CC(=O)O)NC(=O)[C@H](CO)NC(=O)[C@@H](NC(=O)[C@H](Cc1ccccc1)NC(=O)[C@@H](NC(=O)CNC(=O)[C@H](CCC(=O)O)NC(=O)C(C)(C)NC(=O)[C@@H](N)Cc1ccc(O)cc1)[C@@H](C)O)[C@@H](C)O)[C@@H](C)CC)[C@@H](C)CC)C(C)C)C(=O)N[C@@H](C)C(=O)NCC(=O)NCC(=O)N1CCC[C@H]1C(=O)N[C@@H](CO)C(=O)N[C@@H](CO)C(=O)NCC(=O)N[C@@H](C)C(=O)N1CCC[C@H]1C(=O)N1CCC[C@H]1C(=O)N1CCC[C@H]1C(=O)N[C@@H](CO)C(N)=O` is recorded as 0% (refers to: anti-drug antibodies; healthy subjects; 4.5 mg, postbaseline, multiple ascending dose).
With `N#C[C@]1(CO)O[C@@H](n2cnc3c(N)nc(N)nc32)C[C@@H]1O` the IC50 was 1.2 ± 0.9 nM (HIV-1 T215F; MTT; MT4).
For `COc1ccccc1NC(=O)c1ccccc1Oc1ccc2c(c1)OCO2`, the IC50 was 12600 nM (HIV-1; viral replication, refers to: RT activity; H9 expressing A3G, LAI, X4-tropic wild type; day 7).
For `NC(=O)CCNC(=O)c1ccccc1S`, the EC50 was 4010 ± 1110 nM (HIV-1; viral replication; human PBMC, subtype F 93BR019, CXCR4-tropic clinical isolate).
With `Cc1cc(/C=C/C#N)cc(C)c1-n1cnc2cnc(Nc3ccc4cc(C#N)ccc4c3)nc21` the EC50 was over 7 nM (HIV-1; viral replication, single-round infection; RT mutant K101E/M184I).
`COc1ccccc1NC(=O)c1ccccc1Oc1ccc(N)cc1` gave an IC50 of 43200 nM (HIV-1; viral replication, refers to: RT activity; H9 expressing A3G, LAI, X4-tropic wild type; day 7).
